Literature values, collected from citations in different studies.
Numbered parts are unrelated; values within a part may stem from several laboratories. pIC50, pKd, pKi: −log10 of the molar value.

Block 1 — effect on: peptide-MHC binding; form: peptide
Target: HLA class I histocompatibility antigen, A alpha chain, allele A*26:03 (Homo sapiens, UniProt P04439)
| Sequence | pIC50 |
| --- | --- |
| RSLYNTIAVLY | < 4.70 |
| SDDQLRLLK | < 4.70 |
| PRFGSCYFL | < 4.70 |
| SYLIRALTL | < 4.70 |
| GLAEKPNDY | < 4.70 |
| REVFYFGKF | < 4.70 |
| RSLFNTIAVLY | < 4.70 |
| KVFDKSLLY | < 4.70 |
| SEFWLNYTA | < 4.70 |
| LYNTVATLY | 4.70 |
| RYPGVMYAF | < 4.70 |
| SRWAISHWL | < 4.70 |
| NLPSKPVWL | < 4.70 |
| TTARPRPPM | 5.81 |
| YQYIFLSFF | < 4.70 |
| EVIKYGIIY | 7.23 |
| WFGHLASDW | < 4.70 |
| EVPEMFGAE | 6.51 |
| YMYAVSGAL | < 4.70 |
| DILASIIDY | < 4.70 |
| DTWHGFKNM | 7.96 |
| GRRPLKNRK | < 4.70 |
| TIIDRIGPY | 8.05 |
| SQMPPQKIM | < 4.70 |
| ESIDDAAGE | < 4.70 |

Other studies, line by line
| SMILES | target or system | test | test system | conditions | quantity | result |
| --- | --- | --- | --- | --- | --- | --- |
| COc1cccc(CCc2cc(O)c(=O)[nH]n2)c1 | D-amino acid oxidase mouse | inhibitor | – | – | pIC50 | 8.36 |
| CNCc1ccc(-c2cc(-c3nc(-c4ccc(S(=O)(=O)C(C)C)cc4)cnc3N)on2)cc1 | – | – | human | iv | maximum tolerated dose | 240 mg/m² twice weekly |
| c1cc2ccc3cccc4ccc(c1)c2c34 | – | slow stirring | – | – | logKow | 5.41 |
| CC1(C)[C@@H](O)CC[C@]2(C)[C@H]3C(=O)C=C4[C@@H]5C[C@@](C)(C(=O)O)CC[C@]5(C)CC[C@@]4(C)[C@]3(C)CC[C@@H]12 | vascular smooth muscle cells | gap junction coupling | – | – | pIC50 | ~5.70 |
| C[C@@H]1COCCN1c1cc(C2([S@](C)(=N)=O)CC2)nc(-c2cc[nH]c3nccc2-3)n1 | – | – | human | – | maximum tolerated dose | 160 mg twice daily |
| CC1(C)CCC(c2ccc(Cl)cc2)=C(CN2CCN(c3ccc(C(=O)NS(=O)(=O)c4ccc(N[C@H](CCN5CCOCC5)CSc5ccccc5)c(S(=O)(=O)C(F)(F)F)c4)cc3)CC2)C1 | – | – | patients with relapsed SCLC | 325 mg daily, single agent | patients with stable disease | 23% |
| COc1ccc(Cc2nccc3cc(OC)c(OC)cc23)cc1OC | – | – | rodent | – | LD50 | ~30 mg/kg |
| Oc1ccc2c3c1O[C@H]1c4[nH]c5ccccc5c4C[C@@]4(O)[C@@H](C2)N(CC2CC2)CC[C@]314 | HEK293, recombinant | binding, radioligand binding | – | – | pKd | 9.52 |
| CCC(=O)n1cc2c3c(cccc31)C1=C[C@@H](C(=O)N(CC)CC)CN(C)[C@@H]1C2 | – | head-twitch response, agonist | C57BL/6J mice male | literature value | ED50 | 350 nmol/kg |
| CCN(CC)N=O | – | fingerprint mutation, refers to: C>T substitution | mouse, liver | concentration not given | mutation frequency | increased |
| CCCCCCCCCCCCCC(=O)O[C@@H]1[C@@H](C)[C@@]2(O)[C@@H](C=C(CO)C[C@]3(O)C(=O)C(C)=C[C@@H]23)[C@@H]2C(C)(C)[C@]12OC(C)=O | phorbol ester receptor | radioligand binding | – | – | pIC50 | 9.10 |
| CN[C@@H](C)C(=O)N[C@H]1CN(S(=O)(=O)c2cccc(S(=O)(=O)N3CC[C@H]4CC[C@@H](C(=O)NC(c5ccccc5)c5ccccc5)N4C(=O)[C@@H](NC(=O)[C@H](C)NC)C3)c2)CC[C@H]2CC[C@@H](C(=O)NC(c3ccccc3)c3ccccc3)N2C1=O | – | – | human advanced solid tumours | monotherapy | maximum tolerated dose | 45 mg |
| Cn1ncc2c(NC(=O)NCc3ccc(C(F)(F)F)cc3CCC(C)(C)C)cccc21 | TRPV1 | calcium flux, antagonist | HEK293 | with: capsaicin | pIC50 | 8.15 |
| NS(=O)(=O)OC[C@@H]1C[C@@H](n2ccc3c(N[C@H]4CCc5ccccc54)ncnc32)C[C@@H]1O | – | – | human adult patients | single agent | MTD | 60 mg/m² |
| CN1COCN(Cc2cnc(Cl)s2)/C1=N\[N+](=O)[O-] | – | – | test soil | 0.37 mg/kg nominal, 0 days | measured soil concentration | 0.31 mg/kg dry soil |
| CCc1c2c(nc3ccc(OC(=O)N4CCC(N5CCCCC5)CC4)cc13)-c1cc3c(c(=O)n1C2)COC(=O)[C@]3(O)CC | – | refers to: male reproduction | rat | dosing before to early pregnancy | NOAEL | 1.2 mg/kg |
| COC(=O)C[C@@H]1N=C(c2ccc(Cl)cc2)c2c(sc(C)c2C)-n2c(C)nnc21 | Bromodomain-containing protein 4, BD2 (BRD4, Homo sapiens, UniProt O60885) | biochemical | – | bromodomain 2 | pIC50 | 7.34 |
| c1ccc2c(c1)OCC(C1=NCCN1)O2 (centres unmarked) | imidazoline I2 receptor, brain | radioligand binding | – | – | pKi | 8.10 |
| CC1(C)CCC(CN2CCN(c3ccc(C(=O)NS(=O)(=O)c4ccc(NCC5CCOCC5)c([N+](=O)[O-])c4)c(Oc4cnc5[nH]ccc5c4)c3)CC2)=C(c2ccc(Cl)cc2)C1 | – | – | human | 400 mg once daily | AUC at steady state | 36.9 µg·h/mL |
| c1ccc2c(c1)cc1ccc3cccc4ccc2c1c34 | – | slow stirring | – | – | logKow | 6.69 |
| NC1CCCCC1N.O=C([O-])C(=O)[O-].[Pt+2] (centres unmarked) | – | refers to: total platinum | mouse, plasma | intraperitoneal, 5 mg Pt/kg | terminal half-life | 15 h |
| CCCCC(=O)n1cc2c3c(cccc31)C1=C[C@@H](C(=O)N(CC)CC)CN(C)[C@@H]1C2 | – | head-twitch response, agonist | C57BL/6J mice male | literature value | ED50 | 373 nmol/kg |
| CN1CC[C@@]2(CCN3CCc4c(oc5ccccc45)[C@H]3C2)N(C)C1=O | NG108-15 neuroblastoma x glioma | binding, radioligand binding | – | – | pKd | 9.30 |
| O=c1[nH]cc(F)c(=O)[nH]1 | – | – | metastatic pancreatic cancer patients | dose not given | 1-year survival rate | 2% |
| C[C@]12CCC(=O)C=C1CC[C@@H]1[C@@H]2CC[C@]2(C)C(=O)CC[C@@H]12 | aromatase (CYP19A1, human placenta) | substrate | – | – | Km | 0.06 µM |

Repeated from above (block 1):
| Sequence | pIC50 |
| --- | --- |
| EVIKYGIIY | 7.23 |
| WFGHLASDW | < 4.70 |
| EVPEMFGAE | 6.51 |
| YMYAVSGAL | < 4.70 |
| DILASIIDY | < 4.70 |
| DTWHGFKNM | 7.96 |
| GRRPLKNRK | < 4.70 |
